# Measured values from different studies.
# Compare with care: the assays were run in different laboratories. ± gives the spread as reported.
# CTSS: Cathepsin S (CTSS, Homo sapiens, UniProt P25774)
# Sigmar1: Sigma non-opioid intracellular receptor 1 (Sigmar1, Mus musculus, UniProt O55242)
# Chain of UniProt O55242 (whole entry, looked up): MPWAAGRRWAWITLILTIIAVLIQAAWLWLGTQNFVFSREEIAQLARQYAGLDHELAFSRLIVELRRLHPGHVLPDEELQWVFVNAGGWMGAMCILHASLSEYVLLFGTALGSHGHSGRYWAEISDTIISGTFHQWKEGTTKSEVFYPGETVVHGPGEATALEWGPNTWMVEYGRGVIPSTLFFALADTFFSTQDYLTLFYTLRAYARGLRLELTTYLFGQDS
# Chain of UniProt P24463 (whole entry, looked up): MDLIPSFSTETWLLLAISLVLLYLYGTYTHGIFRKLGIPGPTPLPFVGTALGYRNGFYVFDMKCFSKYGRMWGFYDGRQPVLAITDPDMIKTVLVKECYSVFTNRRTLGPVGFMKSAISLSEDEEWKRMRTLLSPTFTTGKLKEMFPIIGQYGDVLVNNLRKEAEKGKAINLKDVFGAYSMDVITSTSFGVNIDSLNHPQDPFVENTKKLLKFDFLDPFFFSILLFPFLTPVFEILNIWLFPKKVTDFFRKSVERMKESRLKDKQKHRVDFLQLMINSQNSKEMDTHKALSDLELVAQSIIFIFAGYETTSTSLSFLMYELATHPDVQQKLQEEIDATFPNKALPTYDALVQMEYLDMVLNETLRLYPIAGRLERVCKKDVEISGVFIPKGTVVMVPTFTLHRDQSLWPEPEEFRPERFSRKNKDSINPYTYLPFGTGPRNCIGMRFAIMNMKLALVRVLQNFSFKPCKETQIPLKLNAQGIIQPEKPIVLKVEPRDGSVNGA
# Chain of UniProt P27487 (whole entry, looked up): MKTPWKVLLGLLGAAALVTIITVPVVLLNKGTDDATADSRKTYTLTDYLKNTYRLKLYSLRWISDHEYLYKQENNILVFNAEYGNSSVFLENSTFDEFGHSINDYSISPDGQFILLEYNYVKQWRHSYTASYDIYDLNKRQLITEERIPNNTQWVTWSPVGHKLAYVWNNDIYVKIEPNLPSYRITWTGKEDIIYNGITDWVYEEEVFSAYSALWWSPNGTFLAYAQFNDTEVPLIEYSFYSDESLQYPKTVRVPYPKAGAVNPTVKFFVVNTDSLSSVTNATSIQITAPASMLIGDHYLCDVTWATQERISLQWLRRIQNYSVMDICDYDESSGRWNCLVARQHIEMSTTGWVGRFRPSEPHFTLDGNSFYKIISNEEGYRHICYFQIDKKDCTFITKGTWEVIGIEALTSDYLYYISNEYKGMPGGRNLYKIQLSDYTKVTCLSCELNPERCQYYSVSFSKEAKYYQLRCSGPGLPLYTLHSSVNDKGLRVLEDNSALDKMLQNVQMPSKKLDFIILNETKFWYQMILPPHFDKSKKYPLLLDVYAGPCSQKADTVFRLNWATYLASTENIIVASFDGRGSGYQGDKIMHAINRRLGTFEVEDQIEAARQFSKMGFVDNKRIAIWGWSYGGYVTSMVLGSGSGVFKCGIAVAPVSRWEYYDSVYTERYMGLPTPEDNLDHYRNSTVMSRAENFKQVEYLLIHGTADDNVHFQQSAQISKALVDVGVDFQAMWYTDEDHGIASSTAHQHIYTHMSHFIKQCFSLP
# Chain of UniProt Q08499 (whole entry, looked up): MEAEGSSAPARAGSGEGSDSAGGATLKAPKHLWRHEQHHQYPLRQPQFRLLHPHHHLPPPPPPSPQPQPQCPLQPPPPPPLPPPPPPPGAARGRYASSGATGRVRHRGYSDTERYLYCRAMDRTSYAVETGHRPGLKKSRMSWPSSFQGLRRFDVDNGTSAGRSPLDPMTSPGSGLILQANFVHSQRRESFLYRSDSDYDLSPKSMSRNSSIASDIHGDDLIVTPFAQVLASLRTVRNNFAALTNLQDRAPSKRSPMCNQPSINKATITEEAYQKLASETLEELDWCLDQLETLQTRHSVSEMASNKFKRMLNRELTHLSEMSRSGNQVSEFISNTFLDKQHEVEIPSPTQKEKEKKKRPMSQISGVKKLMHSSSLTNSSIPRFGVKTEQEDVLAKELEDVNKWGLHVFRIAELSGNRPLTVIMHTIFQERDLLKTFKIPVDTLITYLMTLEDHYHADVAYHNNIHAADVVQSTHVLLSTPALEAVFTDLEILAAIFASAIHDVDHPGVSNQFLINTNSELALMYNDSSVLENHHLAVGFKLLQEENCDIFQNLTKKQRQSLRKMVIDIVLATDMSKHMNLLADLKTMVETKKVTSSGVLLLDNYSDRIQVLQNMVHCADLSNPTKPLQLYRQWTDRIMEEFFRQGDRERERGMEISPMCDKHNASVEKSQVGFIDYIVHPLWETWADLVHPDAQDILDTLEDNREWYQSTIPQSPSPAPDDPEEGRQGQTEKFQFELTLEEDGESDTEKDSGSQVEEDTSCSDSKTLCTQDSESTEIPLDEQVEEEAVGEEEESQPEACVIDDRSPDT
# Chain of UniProt O75469 (whole entry, looked up): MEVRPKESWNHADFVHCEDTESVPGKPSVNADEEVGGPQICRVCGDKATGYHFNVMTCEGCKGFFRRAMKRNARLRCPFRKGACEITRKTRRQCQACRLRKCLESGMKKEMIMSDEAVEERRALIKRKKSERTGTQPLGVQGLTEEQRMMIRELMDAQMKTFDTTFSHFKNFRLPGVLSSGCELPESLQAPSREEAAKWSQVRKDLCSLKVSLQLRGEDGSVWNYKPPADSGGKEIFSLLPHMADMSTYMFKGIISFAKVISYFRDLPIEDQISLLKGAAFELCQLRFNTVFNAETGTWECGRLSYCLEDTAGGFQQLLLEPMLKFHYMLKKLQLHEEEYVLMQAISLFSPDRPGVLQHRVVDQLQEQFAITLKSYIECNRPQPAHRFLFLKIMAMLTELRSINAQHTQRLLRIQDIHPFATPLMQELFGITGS
# Chain of UniProt P08684 (whole entry, looked up): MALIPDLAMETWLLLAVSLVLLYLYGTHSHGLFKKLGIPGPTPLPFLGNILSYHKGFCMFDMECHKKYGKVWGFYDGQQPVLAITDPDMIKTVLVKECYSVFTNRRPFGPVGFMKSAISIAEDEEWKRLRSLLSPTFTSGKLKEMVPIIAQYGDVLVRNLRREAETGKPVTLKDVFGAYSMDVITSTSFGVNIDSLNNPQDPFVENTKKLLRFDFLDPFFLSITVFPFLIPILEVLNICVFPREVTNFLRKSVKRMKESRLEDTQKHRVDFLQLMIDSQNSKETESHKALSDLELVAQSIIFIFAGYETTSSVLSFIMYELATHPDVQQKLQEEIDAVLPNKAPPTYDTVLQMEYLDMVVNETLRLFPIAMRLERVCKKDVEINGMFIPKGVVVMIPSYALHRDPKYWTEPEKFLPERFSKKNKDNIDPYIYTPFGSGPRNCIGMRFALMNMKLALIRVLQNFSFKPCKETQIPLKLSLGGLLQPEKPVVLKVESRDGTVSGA
# Chain of UniProt P21397 (whole entry, looked up): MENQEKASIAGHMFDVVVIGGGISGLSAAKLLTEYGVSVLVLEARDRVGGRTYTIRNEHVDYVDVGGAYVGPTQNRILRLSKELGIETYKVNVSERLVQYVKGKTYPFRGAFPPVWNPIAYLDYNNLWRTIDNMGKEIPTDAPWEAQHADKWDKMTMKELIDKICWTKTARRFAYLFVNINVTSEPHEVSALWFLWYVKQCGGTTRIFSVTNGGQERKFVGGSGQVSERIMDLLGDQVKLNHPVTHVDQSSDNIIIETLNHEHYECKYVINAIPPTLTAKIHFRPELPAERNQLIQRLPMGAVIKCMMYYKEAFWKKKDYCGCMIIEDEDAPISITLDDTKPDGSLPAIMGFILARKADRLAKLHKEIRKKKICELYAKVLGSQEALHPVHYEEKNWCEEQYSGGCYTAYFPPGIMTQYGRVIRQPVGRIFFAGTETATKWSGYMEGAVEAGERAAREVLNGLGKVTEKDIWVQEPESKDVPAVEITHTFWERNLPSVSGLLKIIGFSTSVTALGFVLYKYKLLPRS
# Chain of UniProt P10632 (whole entry, looked up): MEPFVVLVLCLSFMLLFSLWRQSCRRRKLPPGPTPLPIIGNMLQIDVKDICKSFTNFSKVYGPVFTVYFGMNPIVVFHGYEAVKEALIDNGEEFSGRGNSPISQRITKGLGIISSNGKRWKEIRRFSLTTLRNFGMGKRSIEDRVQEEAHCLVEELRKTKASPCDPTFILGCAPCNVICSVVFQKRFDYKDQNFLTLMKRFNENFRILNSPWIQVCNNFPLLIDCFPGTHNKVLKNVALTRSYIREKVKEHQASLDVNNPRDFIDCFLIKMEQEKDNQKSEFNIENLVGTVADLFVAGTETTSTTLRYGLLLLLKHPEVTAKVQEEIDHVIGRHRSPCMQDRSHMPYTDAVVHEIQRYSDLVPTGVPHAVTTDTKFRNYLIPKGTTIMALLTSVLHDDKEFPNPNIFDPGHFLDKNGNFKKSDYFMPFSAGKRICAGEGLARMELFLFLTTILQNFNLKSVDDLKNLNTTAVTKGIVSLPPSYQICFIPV
Compound,target or system,test,system,conditions,how to read,endpoint,value
COc1ccc2cc(NC(=O)c3cc(-c4ccncc4)nc4ccccc34)ccc2c1,"Cytochrome P450 3A4 (CYP3A4, Homo sapiens, UniProt P08684)","substrate, refers to: metabolite M1",baculosomes,,,kcat/Km,11300 M⁻¹ s⁻¹
CC(=O)N[C@H](C(=O)N[C@H](C(=O)N[C@@H](CCCNC(=N)N)C(=O)N1Cc2ccccc2C[C@H]1C(=O)N[C@@H](Cc1ccccc1)C(N)=O)C1CCCCC1)C(C)C,CTSS,substrate,isolated enzyme in acetate buffer,"1 mg/mL, pH 5.5, 0.15 U enzyme per µmol compound",,half-life,20 h
NC(=O)N/N=C/c1ccccn1,Fe2+ complex,potentiometric titration,,25 °C,,log stability constant,16.1
CC[C@H](C)[C@H](NC(=O)[C@H](Cc1ccccc1)NC(=O)[C@H](CCC(=O)O)NC(=O)[C@H](CCCCN)NC(=O)[C@H](C)NC(=O)[C@H](C)NC(=O)[C@H](CCC(N)=O)NC(=O)CNC(=O)[C@H](CCC(=O)O)NC(=O)[C@H](CC(C)C)NC(=O)[C@H](Cc1ccc(O)cc1)NC(=O)[C@H](CO)NC(=O)[C@H](CO)NC(=O)[C@@H](NC(=O)[C@H](CC(=O)O)NC(=O)[C@H](CO)NC(=O)[C@@H](NC(=O)[C@H](Cc1ccccc1)NC(=O)[C@@H](NC(=O)CNC(=O)[C@H](CCC(=O)O)NC(=O)[C@H](C)NC(=O)[C@@H](N)Cc1c[nH]cn1)[C@@H](C)O)[C@@H](C)O)C(C)C)C(=O)N[C@@H](C)C(=O)N[C@@H](Cc1c[nH]c2ccccc12)C(=O)N[C@@H](CC(C)C)C(=O)N[C@H](C(=O)N[C@@H](CCCNC(=N)N)C(=O)NCC(=O)N[C@@H](CCCNC(=N)N)C(=O)NCC(=O)O)C(C)C,"Dipeptidyl peptidase 4 (DPP4, Homo sapiens, UniProt P27487)","substrate, HPLC-UV",,"pH 7.4, 37 °C",,half-life,~0.3 h
NC(=S)N/N=C/c1ccccn1,Fe2+ complex,potentiometric titration,,25 °C,,log stability constant,17.1
CCCN(CC(=O)N(CCC)CC(=O)N(CCC)CC(=O)N(CCC)CC(=O)N(CC(=O)N(CCC)CC(=O)N(CCC)CC(=O)N(CCC)CC(=O)N(CCC)CC(=O)N(CC(N)=O)Cc1cn(CCCNC(=O)CCCOc2cccc(-c3nc4ccc(-c5nc6ccc(N7CCN(C)CC7)cc6[nH]5)cc4[nH]3)c2)nn1)Cc1cn(CCCNC(=O)CCCOc2cccc(-c3nc4ccc(-c5nc6ccc(N7CCN(C)CC7)cc6[nH]5)cc4[nH]3)c2)nn1)C(=O)CNCc1cn(CCCNC(=O)CCCOc2cccc(-c3nc4ccc(-c5nc6ccc(N7CCN(C)CC7)cc6[nH]5)cc4[nH]3)c2)nn1,C2C12,flow cytometry,,"5 µM, 14 h",,ligand- and PI-positive cells,5.8%
[64Cu+2].c1cnc(CNCc2ccc(CN3CCCN4CCNCCCN(CC4)CC3)cc2)nc1,CXCR4,,"NOD/SCID mouse, U87 and U87-stb-CXCR4 xenografts, heart","iv, 60 min, ex vivo",,tissue uptake,1.62 ± 0.15 %ID/g
C[C@H]1C[C@@H](Oc2cccc(F)n2)CCN1Cc1cnc(N[11C](C)=O)s1,"O-GlcNAcase (Macaca mulatta, UniProt F6QIP2)",PET,"rhesus monkey, cerebellum",baseline,,time to peak uptake,~45 min
N[C@H](CSC(F)(F)[18F])C(=O)O,C6 tumour model,,"male nude, tumour","intravenous, 3.7 MBq, 45 min, tumour-bearing",,tracer uptake,3.81 %ID/g
COc1cc(-c2nc3ccccc3s2)cc(CN2CCN(C)CCN(C)CC2)c1O,copper(2+) ion,"Cu2+ binding, from titration constants",aqueous solution,"50 µM, pH 7.4, Cu:ligand 1:1, equal totals",,pCu,13.3
C[C@H](NC(=O)[C@H](Cc1ccccc1)NC(=O)[C@H](CO)NC(=O)[C@H](CO)NC(=O)[C@@H](NC(=O)[C@H](CCCNC(=N)N)NC(=O)[C@@H]1CCCN1C(=O)[C@H](CCCNC(=N)N)NC(=O)CN)[C@@H](C)O)C(=O)N[C@@H](CCC(=O)O)C(=O)NCC(=O)O,pronase,substrate,,,,time to degradation,≤ 0.5 h
[123I]c1ccc2nc(-c3ccc(-n4ccnn4)nc3)cn2c1,"Amyloid-beta precursor protein, amyloid-beta (APP, Homo sapiens, UniProt P05067)",SPECT,"healthy controls, brain",intravenous,,maximum SUV,~2.5
NC(=S)N/N=C/c1ccccc1O,Fe2+ complex,potentiometric titration,,25 °C,,log stability constant,17.2
COc1cc(CNC(=O)C[C@H](C)CCC=C(C)C)ccc1OCc1cn(-c2cccc(C(F)(F)F)c2)nn1,RXF 393,SRB,,"10 µM, 48 h",,growth percent,88.3%
NS(=O)(=O)Nc1ncnc(OCCOc2ncc(Br)cn2)c1-c1ccc(Br)cc1,"Cytochrome P450 3A12 (Canis lupus familiaris, UniProt P24463)",refers to: compound formation,dog female,,,contribution to clearance,100%
COc1cc(-c2nc3ccccc3s2)cc(CN2Cc3cccc(n3)CN(C)Cc3cccc(n3)C2)c1O,copper(2+) ion,"Cu2+ binding, from titration constants",aqueous solution,"50 µM, pH 6.6, Cu:ligand 1:1, equal totals",,pCu,11.5
CCCN(CC(=O)N(CCC)CC(=O)N(CCC)CC(=O)N(CCC)CC(=O)N(CC(=O)N(CCC)CC(=O)N(CCC)CC(=O)N(CCC)CC(=O)N(CCC)CC(=O)N(CC(=O)N(CCC)CC(=O)N(CCC)CC(=O)N(CCC)CC(=O)N(CCC)CC(=O)N(CC(N)=O)Cc1cn(CCCNC(=O)CCCOc2cccc(-c3nc4ccc(-c5nc6ccc(N7CCN(C)CC7)cc6[nH]5)cc4[nH]3)c2)nn1)Cc1cn(CCCNC(=O)CCCOc2cccc(-c3nc4ccc(-c5nc6ccc(N7CCN(C)CC7)cc6[nH]5)cc4[nH]3)c2)nn1)Cc1cn(CCCNC(=O)CCCOc2cccc(-c3nc4ccc(-c5nc6ccc(N7CCN(C)CC7)cc6[nH]5)cc4[nH]3)c2)nn1)C(=O)CNCc1cn(CCCNC(=O)CCCOc2cccc(-c3nc4ccc(-c5nc6ccc(N7CCN(C)CC7)cc6[nH]5)cc4[nH]3)c2)nn1,C2C12,flow cytometry,,"5 µM, 14 h",,compound fluorescence-only positive cells,69%
N=C(N)NCCC[C@@H]1NC(=O)[C@H](CCCCNC(=O)CC[C@H](NC(=O)CC[C@H](NC(=O)CN2CCN(CC(=O)O)CCN(CC(=O)O)CCN(CC(=O)O)CC2)C(=O)N[C@@H](CCC(=O)NCCCC[C@@H]2NC(=O)[C@@H](Cc3ccccc3)NC(=O)[C@H](CC(=O)O)NC(=O)CNC(=O)[C@H](CCCNC(=N)N)NC2=O)C(=O)NCCCC[C@@H]2NC(=O)[C@@H](Cc3ccccc3)NC(=O)[C@H](CC(=O)O)NC(=O)CNC(=O)[C@H](CCCNC(=N)N)NC2=O)C(=O)NCCCC[C@@H]2NC(=O)[C@@H](Cc3ccccc3)NC(=O)[C@H](CC(=O)O)NC(=O)CNC(=O)[C@H](CCCNC(=N)N)NC2=O)NC(=O)[C@@H](Cc2ccccc2)NC(=O)[C@H](CC(=O)O)NC(=O)CNC1=O [indium-111 labelled],,,"female athymic nu/nu mice, heart","intravenous, 24 h",,tissue uptake,0.54 ± 0.26 %ID/g
CSCC[C@H](NC(=O)[C@@H]1CCCN1C(=O)[C@@H](COC(C)(C)C)NC(=O)[C@@H](COC(C)(C)C)NC(=O)CNC(=O)CN1CCN(CC(=O)OC(C)(C)C)CCN(CC(=O)OC(C)(C)C)CCN(CC(=O)OC(C)(C)C)CC1)C(=O)NCC(=O)N[C@@H](CC(C)C)C(=O)N1CCC[C@H]1C(=O)O,CTSS,"cleavage, substrate",,"24 h, pH 6.0, room temperature, un-metalated, start of time course",,fraction metabolized,11%
C=CC(=O)Nc1cc(Nc2nccc(-c3cn(C)c4ccccc34)n2)c(OCC(F)(F)F)nc1N(C)CCN(C)C,"Cytochrome P450 2C8 (CYP2C8, Homo sapiens, UniProt P10632)","enzyme activity, inhibitor","human, liver microsomes",0.33 µM,,activity vs control,105%
Cn1c(=O)oc2ccc(-c3ccc(CC(C#N)NC(=O)C4CNCCCO4)c(F)c3)cc21 (stereo not shown),,refers to: monocyte count increased,human,"80 mg single dose, fasted",,subjects with TEAE,16.7%
COc1cc(-c2nc3ccccc3s2)cc(CN2Cc3cccc(n3)CN(CC(=O)O)Cc3cccc(n3)C2)c1O,copper(2+) ion,"Cu2+ binding, from titration constants",aqueous solution,"50 µM, pH 7.4, Cu:ligand 1:1, equal totals",,pCu,14.1
[11CH3]Oc1ccc(-n2nc(OCCCN3CCCCC3)ccc2=O)cc1,Sigmar1,radiotracer,"mouse BALB/c male, whole brain","intravenous, early",,maximum uptake,6.48 %ID/cc
[11CH3]Oc1ccc(Cc2cn[nH]c2)nc1-c1cccc([N+](=O)[O-])c1,"3',5'-cyclic-AMP phosphodiesterase 4D (PDE4D, Homo sapiens, UniProt Q08499)",PET,,"concentration not given, about 4 min, baseline scan",,peak brain radioactivity,4.39 SUV
[64Cu+2].c1ccc(CNCc2ccc(CN3CCCN4CCNCCCN(CC4)CC3)cc2)nc1,CXCR4,,"NOD/SCID mouse, U87 and U87-stb-CXCR4 xenografts, kidney","iv, 60 min, ex vivo",,tissue uptake,39.7 ± 4.03 %ID/g
O=c1c(/C=N/NC(=S)N/N=C/c2ccccc2O)coc2ccccc12,Fe2+ complex,potentiometric titration,,25 °C,,log stability constant,17.4
COc1ccc(CCCN[C@@H]2CCC[C@H]2CN[C@@H]2CCC[C@H]2CNCCCCN[C@@H]2CCC[C@H]2CN)cc1,"Amine oxidase [flavin-containing] A (MAOA, Homo sapiens, UniProt P21397)","enzyme activity, inhibitor",,,,Ki,380 µM
[11CH3]N1CCN(CCCOc2ccc(=O)n(-c3ccc(Cl)c(Cl)c3)n2)CC1,Sigmar1,radiotracer,"mouse BALB/c male, whole brain","intravenous, 5 min",,maximum uptake,7.66 %ID/cc
COc1cc(CNC(=O)C[C@H](C)CCC=C(C)C)ccc1OCc1cn(-c2ccccc2F)nn1,RXF 393,SRB,,"10 µM, 48 h",,growth percent,38.4%
CCC(=O)N(C)c1ccc(Cl)c(Cl)c1,"Nuclear receptor subfamily 1 group I member 2 (NR1I2, Homo sapiens, UniProt O75469)","reporter gene, agonist",,10 µM,reference: vehicle,fold activation,0.86 fold
COc1cc(-c2nc3ccccc3s2)cc(CN2Cc3cccc(n3)CNCc3cccc(n3)C2)c1O,copper(2+) ion,"Cu2+ binding, from titration constants",aqueous solution,"50 µM, pH 6.6, Cu:ligand 1:1, equal totals",,pCu,11.7

# A few entries again:
Compound,target or system,test,system,conditions,how to read,endpoint,value
NS(=O)(=O)Nc1ncnc(OCCOc2ncc(Br)cn2)c1-c1ccc(Br)cc1,"Cytochrome P450 3A12 (Canis lupus familiaris, UniProt P24463)",refers to: compound formation,dog female,,,contribution to clearance,100%
COc1cc(-c2nc3ccccc3s2)cc(CN2Cc3cccc(n3)CN(C)Cc3cccc(n3)C2)c1O,copper(2+) ion,"Cu2+ binding, from titration constants",aqueous solution,"50 µM, pH 6.6, Cu:ligand 1:1, equal totals",,pCu,11.5
CCCN(CC(=O)N(CCC)CC(=O)N(CCC)CC(=O)N(CCC)CC(=O)N(CC(=O)N(CCC)CC(=O)N(CCC)CC(=O)N(CCC)CC(=O)N(CCC)CC(=O)N(CC(=O)N(CCC)CC(=O)N(CCC)CC(=O)N(CCC)CC(=O)N(CCC)CC(=O)N(CC(N)=O)Cc1cn(CCCNC(=O)CCCOc2cccc(-c3nc4ccc(-c5nc6ccc(N7CCN(C)CC7)cc6[nH]5)cc4[nH]3)c2)nn1)Cc1cn(CCCNC(=O)CCCOc2cccc(-c3nc4ccc(-c5nc6ccc(N7CCN(C)CC7)cc6[nH]5)cc4[nH]3)c2)nn1)Cc1cn(CCCNC(=O)CCCOc2cccc(-c3nc4ccc(-c5nc6ccc(N7CCN(C)CC7)cc6[nH]5)cc4[nH]3)c2)nn1)C(=O)CNCc1cn(CCCNC(=O)CCCOc2cccc(-c3nc4ccc(-c5nc6ccc(N7CCN(C)CC7)cc6[nH]5)cc4[nH]3)c2)nn1,C2C12,flow cytometry,,"5 µM, 14 h",,compound fluorescence-only positive cells,69%
N=C(N)NCCC[C@@H]1NC(=O)[C@H](CCCCNC(=O)CC[C@H](NC(=O)CC[C@H](NC(=O)CN2CCN(CC(=O)O)CCN(CC(=O)O)CCN(CC(=O)O)CC2)C(=O)N[C@@H](CCC(=O)NCCCC[C@@H]2NC(=O)[C@@H](Cc3ccccc3)NC(=O)[C@H](CC(=O)O)NC(=O)CNC(=O)[C@H](CCCNC(=N)N)NC2=O)C(=O)NCCCC[C@@H]2NC(=O)[C@@H](Cc3ccccc3)NC(=O)[C@H](CC(=O)O)NC(=O)CNC(=O)[C@H](CCCNC(=N)N)NC2=O)C(=O)NCCCC[C@@H]2NC(=O)[C@@H](Cc3ccccc3)NC(=O)[C@H](CC(=O)O)NC(=O)CNC(=O)[C@H](CCCNC(=N)N)NC2=O)NC(=O)[C@@H](Cc2ccccc2)NC(=O)[C@H](CC(=O)O)NC(=O)CNC1=O [indium-111 labelled],,,"female athymic nu/nu mice, heart","intravenous, 24 h",,tissue uptake,0.54 ± 0.26 %ID/g
